# Results from different studies.
# Each line is one published result; not all experiments were run side by side. ± marks the error that the study gave.
Compound,assay,test system,conditions,how to read,measurement,result
CNC(=O)Oc1cc(C)c([S+](C)[O-])c(C)c1 (stereo not drawn),,human liver microsomes,"1 µM, 30 min, 0.5 mg/mL protein",,percent metabolized,36.9%
CC[C@H](C)[C@H](NC(=O)[C@H](Cc1ccccc1)NC(=O)[C@H](CC(=O)O)NC(=O)[C@H](CCCNC(=N)N)NC(=O)[C@H](Cc1ccccc1)NC(=O)[C@H](Cc1ccccc1)NC(=O)[C@H](CCCCN)NC(=O)[C@H](CO)NC(=O)[C@H](CC(C)C)NC(=O)[C@H](CCCNC(=N)N)NC(=O)[C@H](CCSC)NC(=O)[C@H](C)N)C(=O)N[C@@H](CCCN)C(=O)N[C@@H](CCC(N)=O)C(=O)N[C@@H](CCCNC(=N)N)C(=O)N[C@@H](CCCCN)C(=O)N[C@@H](CCCCN)C(=O)O,circular dichroism,20% TFE in PBS,"200 µM, pH 7.4, 25 °C",,helicity,16.6%
CC[C@H](C)[C@H](NC(=O)[C@H](CC(=O)O)NC(=O)[C@H](CO)NC(=O)[C@H](CCC(N)=O)NC(=O)[C@H](C)NC(=O)[C@H](CC(=O)O)NC(=O)[C@H](CCC(=O)O)NC(=O)[C@H](Cc1c[nH]cn1)NC(=O)[C@H](Cc1ccc(O)cc1)NC(=O)[C@H](C)NC(=O)[C@H](CC(=O)O)NC(=O)[C@H](CCC(=O)O)NC(=O)[C@H](Cc1c[nH]cn1)NC(=O)[C@H](Cc1ccc(O)cc1)NC(=O)[C@H](C)NC(=O)[C@H](CC(=O)O)NC(=O)[C@H](CCC(=O)O)NC(=O)[C@H](Cc1c[nH]cn1)NC(=O)[C@H](Cc1ccc(O)cc1)NC(=O)[C@H](C)NC(=O)[C@H](CC(=O)O)NC(=O)[C@H](CCC(=O)O)NC(=O)[C@H](Cc1c[nH]cn1)NC(=O)[C@H](Cc1ccc(O)cc1)NC(=O)[C@H](C)NC(=O)[C@H](CC(=O)O)NC(=O)[C@H](CCC(=O)O)NC(=O)[C@H](Cc1c[nH]cn1)NC(=O)[C@@H](N)Cc1ccc(O)cc1)C(=O)N[C@H](C(=O)N[C@@H](C)C(=O)N[C@@H](Cc1c[nH]cn1)C(=O)N[C@@H](CC(C)C)C(=O)N[C@@H](CC(C)C)C(=O)O)C(C)C,,normal mouse,dose not given,,AST,50 ± 6 IU/L
CSCC[C@H](NC(=O)CNC(=O)[C@H](CC(=O)O)NC(=O)[C@@H](NC(=O)[C@@H](NC(=O)[C@@H](NC(=O)CNC(=O)[C@H](CCC(N)=O)NC(=O)[C@H](CCSC)NC(=O)[C@H](CC(=O)O)NC(=O)[C@H](C)NC(=O)[C@H](C)NC(=O)[C@@H](NC(=O)[C@H](CO)NC(=O)[C@@H](N)CC(C)C)[C@@H](C)O)C(C)C)C(C)C)[C@@H](C)O)C(=O)N[C@@H](C)C(=O)N[C@@H](CO)C(=O)NCC(=O)N[C@@H](CC(C)C)C(=O)N[C@@H](CC(=O)O)C(=O)N[C@@H](CCCCN)C(=O)N[C@@H](CC(=O)O)C(=O)N[C@@H](Cc1ccc(O)cc1)C(=O)N[C@@H](CC(C)C)C(=O)N[C@@H](CCCCN)C(=O)N1CCC[C@H]1C(=O)N[C@@H](CC(=O)O)C(=O)N[C@@H](CC(=O)O)C(=O)O,,p53-positive advanced solid tumour patients,dose not given,,probably related transient hypertension events,3
O=C(C[P+]([Au-][Cl])(c1ccccc1)c1ccccc1)[O][Ti+2][O]C(=O)C[P+]([Au-][Cl])(c1ccccc1)c1ccccc1.c1cc[cH-]c1.c1cc[cH-]c1,,"C57BL/6 mice, female","subcutaneous, once daily",,lethal dose,15 mg/kg/day
CC[C@H](C)C(=O)N1CCC(NC(=O)Nc2ccc(OC(F)(F)F)c(F)c2)CC1,,"human, plasma","oral, 8 mg, single dose, fasted, healthy volunteers",,CL/F,2.51 L/h
N=C(N)NCc1ccc(C(=O)NCCCC[C@H](NC(=O)N[C@@H](CCC(=O)O)C(=O)O)C(=O)O)cc1[211At],,"SCID mouse, PC-3 xenografts, brain",4 h,,tissue uptake,0.09 ± 0.03 %ID/g
CCN(CC)c1ccc2c(-c3ccccc3C(=O)OCCOCC[18F])c3ccc(=[N+](CC)CC)cc-3oc2c1,,rat,"dose not given, 60 min post injection",relative to: heart over blood,heart to blood ratio,10
COc1ccc(C2=Nn3c(NN=C4C(=O)N(C)c5ccc(Br)cc54)nnc3SC2)cc1,,"chick embryo, chorioallantoic membrane",40 µM,,toxicity,toxic
CCCCCCCC(=O)OC[C@H](NC(=O)[C@H](CO)NC(=O)CN)C(=O)N[C@@H](Cc1ccccc1)C(=O)N[C@@H](CC(C)C)C(=O)N[C@@H](CO)C(=O)N1CCC[C@H]1C(=O)N[C@@H](CCC(=O)O)C(=O)N[C@@H](Cc1cnc[nH]1)C(=O)N[C@@H](CCC(N)=O)C(=O)N[C@@H](CCCNC(=N)N)C(=O)N[C@H](C(=O)N[C@@H](CCC(N)=O)C(=O)N[C@@H](CCC(N)=O)C(=O)N[C@@H](CCCNC(=N)N)C(=O)N[C@@H](CCCCN)C(=O)N[C@@H](CCC(=O)O)C(=O)N[C@@H](CO)C(=O)N[C@@H](CCCCN)C(=O)N[C@@H](CCCCN)C(=O)N1CCC[C@H]1C(=O)N1CCC[C@H]1C(=O)N[C@@H](C)C(=O)N[C@@H](CCCCN)C(=O)N[C@@H](CC(C)C)C(=O)N[C@@H](CCC(N)=O)C(=O)N1CCC[C@H]1C(=O)N[C@@H](CCCNC(=N)N)C(=O)O)C(C)C,,"human, plasma","intravenous infusion, 3 µg/kg/h",relative to: baseline,peak concentration fold increase,355 fold
CC[C@H](C)[C@H](NC(=O)[C@H](Cc1ccccc1)NC(=O)[C@@H]1CCCN1C(=O)[C@H](CCCCN)NC(=O)[C@H](CCCCN)NC(=O)[C@H](Cc1ccccc1)NC(=O)[C@H](Cc1ccccc1)NC(=O)[C@@H](C)NC(=O)[C@@H](N)Cc1ccc(O)cc1)C(=O)N[C@@H](CC(C)C)C(=O)O,,anesthetized rat,"intrathecal, 10 nmol/rat, 10 min",,mean arterial pressure,87 ± 7 mmHg
COc1cc(NC(=O)C(=O)c2c(C)n(Cc3ccc(Cl)cc3)c3ccc(C)cc23)ccn1,,"female cynomolgus monkey, plasma","intravenous, 1 mg/kg",,Vd,8.38 L/kg
CCOP(=O)(OCC)OCCCCOC(=O)CC1=C(C)/C(=C/c2ccc([S+](C)[O-])cc2)c2ccc(F)cc21 (stereo not drawn),,"rat, muscle","oral, 50 mg/kg",,Tmax,30 min
CC(C)C[C@H](NC(=O)[C@H](CCCCN)NC(=O)[C@H](CCC(=O)O)NC(=O)[C@H](C)NC(=O)[C@@H](NC(=O)[C@H](CCCCN)NC(=O)[C@H](CC(=O)O)NC(=O)[C@H](Cc1ccc(O)cc1)NC(=O)[C@H](Cc1ccccc1)NC(=O)[C@H](C)NC(=O)[C@H](CCCCN)NC(=O)[C@H](CC(C)C)NC(=O)[C@H](Cc1c[nH]c2ccccc12)NC(=O)[C@@H](N)CC(=O)O)C(C)C)C(=O)N[C@@H](CCCCN)C(=O)N[C@@H](CCC(=O)O)C(=O)N[C@@H](C)C(=O)N[C@@H](Cc1ccccc1)C(=O)N1CCC[C@H]1C(=O)N[C@@H](CC(=O)O)C(=O)N[C@@H](Cc1c[nH]c2ccccc12)C(=O)N[C@@H](C)C(=O)N[C@@H](CCCCN)C(=O)N[C@@H](C)C(=O)N[C@@H](C)C(=O)N[C@@H](Cc1ccc(O)cc1)C(=O)N[C@@H](CC(=O)O)C(=O)N[C@@H](CCCCN)C(=O)N[C@@H](C)C(=O)N[C@@H](C)C(=O)N[C@@H](CCC(=O)O)C(=O)N[C@@H](CCCCN)C(=O)N[C@@H](C)C(=O)N[C@@H](CCCCN)C(=O)N[C@@H](CCC(=O)O)C(=O)N[C@@H](C)C(=O)N[C@@H](C)C(=O)O,,"cynomolgus monkey female, plasma","intravenous infusion, 75 mg/kg, day 1, 30 min infusion",,Tmax,0 min
CN[C@](C)(C[18F])C(=O)O,,"SCID mouse A549 xenograft, kidney",120 min post injection,,tissue uptake,2.6 ± 0.3 %ID/g
CC[C@H](C)[C@@H]1NC(=O)[C@H](CCCCN)NC(=O)[C@H](CCCCN)NC(=O)[C@H](Cc2ccc(O)cc2)NC(=O)[C@H](CC(C)C)NC(=O)[C@@H]2CCCN2C(=O)[C@H](C)NC(=O)CNC(=O)CNC(=O)[C@H](CO)NC(=O)CNC(=O)CNC(=O)[C@H](CO)NC(=O)[C@H](CCCCN)NC(=O)[C@H](CC(C)C)NC(=O)[C@H](CC(C)C)NC(=O)[C@H](CCCCN)NC(=O)[C@H](CCCCN)NC(=O)[C@H]([C@@H](C)CC)NC(=O)[C@H]([C@@H](C)CC)NC(=O)[C@H](CCCCN)NC(=O)[C@H](CCCCN)NC(=O)[C@H](Cc2ccc(O)cc2)NC(=O)[C@H](CC(C)C)NC(=O)[C@@H]2CCCN2C(=O)[C@H](C)NC(=O)CNC(=O)CNC(=O)[C@H](CO)NC(=O)CNC(=O)CNC(=O)[C@H](CO)NC(=O)[C@H](CCC(=O)O)NC(=O)[C@H](CC(C)C)NC(=O)[C@H](CC(C)C)NC(=O)[C@H](CCCCN)NC(=O)[C@H](CCCCN)NC(=O)[C@H]([C@@H](C)CC)NC1=O,,25% human serum,"50 µM, 24 h",relative to: 0 h control,remaining intact peptide,12.2 ± 1%
CCCCCCCCCCCCCCC(=O)O.O=C1CCCC2C3CCCN4CCCC(CN12)C34 (stereo not drawn),shake-flask,ultrapure water,"pH 7.0, 25 °C",,log octanol-water partition coefficient,0.46
C[C@H]1C(OC(=O)C(Cl)Cl)O[C@@H]2O[C@@]3(C)CC[C@H]4[C@H](C)CCC1[C@@]24OO3 (stereo partly drawn),,Tg(fli1:EGFP) zebrafish embryos,"25 µg/mL, up to 48 hpf",,dead embryos,0 count
CN(C)C(CNC(=O)Nc1cc(C(F)(F)F)ccc1N1CCOCC1)c1ccncc1 (stereo not drawn),,"mouse, serum","intraperitoneal, 240 mg/kg single dose",,serum globulin,1.6 g/dL
CC(C)C[C@H](NC(=O)[C@H](Cc1ccccc1)NC(=O)CNC(=O)C/C=C(\F)[C@@H](N)Cc1ccc(O)cc1)C(=O)O,,"BALB/c mice, brain","oral, 400 mg/kg",,time to undetectable level,≤ 10 min
COc1cc(C(=O)NCCOCCOCCOCCNC(=O)c2ccc([18F])nc2)ccc1NC(=O)C1NC(CC(C)(C)C)C(C#N)(c2ccc(Cl)cc2F)C1c1cccc(Cl)c1F (stereo not drawn),,"BALB/c mouse, plasma",30 min,relative to: plasma radioactivity,polar metabolites,~41%

# A few entries again:
Compound,assay,test system,conditions,how to read,measurement,result
CNC(=O)Oc1cc(C)c([S+](C)[O-])c(C)c1 (stereo not drawn),,human liver microsomes,"1 µM, 30 min, 0.5 mg/mL protein",,percent metabolized,36.9%
CC[C@H](C)[C@H](NC(=O)[C@H](Cc1ccccc1)NC(=O)[C@H](CC(=O)O)NC(=O)[C@H](CCCNC(=N)N)NC(=O)[C@H](Cc1ccccc1)NC(=O)[C@H](Cc1ccccc1)NC(=O)[C@H](CCCCN)NC(=O)[C@H](CO)NC(=O)[C@H](CC(C)C)NC(=O)[C@H](CCCNC(=N)N)NC(=O)[C@H](CCSC)NC(=O)[C@H](C)N)C(=O)N[C@@H](CCCN)C(=O)N[C@@H](CCC(N)=O)C(=O)N[C@@H](CCCNC(=N)N)C(=O)N[C@@H](CCCCN)C(=O)N[C@@H](CCCCN)C(=O)O,circular dichroism,20% TFE in PBS,"200 µM, pH 7.4, 25 °C",,helicity,16.6%
